Measured values from different studies.
Each numbered part is a random draw from the data of one study; scales do not carry over between parts.

Sample 1 — method: aptamer microarray, sandwich; molecule type: DNA with 2'F-ANA; matrix: in vitro; concentration: 200 nM; with: Cy3 exosite-II aptamer, 400 nM; direction: higher = stronger binding; sequence: GGTTGGTGTGGTTGG
Target: Prothrombin, mature alpha-thrombin (F2, Homo sapiens, UniProt P00734)
Notes: whole 15-mer aptamer, many near background
Modification | mean fluorescence intensity [a.u.]
2'F-ANA at 2 5 8 9 11 12 | 162
2'F-ANA at 4 6 7 8 10 11 12 13 | 88.5
2'F-ANA at 1 2 3 4 6 7 9 10 12 13 15 | 64.6
2'F-ANA at 2 3 4 5 6 10 15 | 123
2'F-ANA at 1 2 9 12 14 15 | 62.9

Sample 2 — method: protein-binding microarray; molecule type: double-stranded DNA, one strand shown; matrix: in vitro; concentration: 0.8 µM; notes: whole 60-bp probe, no competitor; direction: higher = stronger binding
Target: Centromere-binding protein 1, full length, N-terminal tag (CBF1, Saccharomyces cerevisiae, UniProt P17106, residues 1-351)
Sequence of UniProt P17106 (whole entry, looked up): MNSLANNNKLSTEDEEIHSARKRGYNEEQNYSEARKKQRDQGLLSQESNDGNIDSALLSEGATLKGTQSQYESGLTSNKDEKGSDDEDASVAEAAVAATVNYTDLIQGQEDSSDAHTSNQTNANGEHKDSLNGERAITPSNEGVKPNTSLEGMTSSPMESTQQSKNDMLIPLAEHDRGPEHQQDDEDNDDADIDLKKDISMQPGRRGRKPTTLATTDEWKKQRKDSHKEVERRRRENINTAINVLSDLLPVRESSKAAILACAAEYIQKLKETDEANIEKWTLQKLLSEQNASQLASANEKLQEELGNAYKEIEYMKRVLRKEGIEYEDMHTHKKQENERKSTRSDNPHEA
Sequence | fluorescence intensity
CTATATTCATTTTTCCTCGTGTTGTTATAACGATTCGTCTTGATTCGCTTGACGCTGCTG | 630 a.u.
CTACTGCTAGCAATGAACGTGCTATCTTTTTATTTCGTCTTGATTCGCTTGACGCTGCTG | 696 a.u.
CTAGGTGTTTTTAATCAGCTGTAATAGAAGTACTTCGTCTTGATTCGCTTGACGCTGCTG | 560 a.u.
CCTAACTACTATAGCCACGACCGATAGCTTCGTACAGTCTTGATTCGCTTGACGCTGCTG | 519 a.u.
CTAGTACTTTTGAATCATCAGACAAGAACAATGTTCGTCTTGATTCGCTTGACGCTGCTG | 500 a.u.

Sample 3 — method: protein-binding microarray; molecule type: double-stranded DNA, one strand shown; matrix: in vitro; concentration: 940 nM top; notes: 60-bp whole probe; with: salmon DNA 0.4 mg/ml; reference: random background probes; direction: higher = stronger binding
Target: Interferon regulatory factor 5, full length, phosphomimetic (IRF5, Homo sapiens, UniProt Q13568-2, residues 1-514, S451D/S453D/S456D/S462D)
Sequence | fitted relative affinity [z-score]
GCCTAGCACGACGGACTGAGTCTCGAGACGTGCTAGGTCTTGATTCGCTTGACGCTGCTG | 0.342
GCCTAGCACTCATCTTTAACATATTCTACTGTGCTAGTCTTGATTCGCTTGACGCTGCTG | 1.44
GCCTAGCACTCAAGTTTCTTTTCTTTACTGTGCTAGGTCTTGATTCGCTTGACGCTGCTG | 2.53
GCCTAGCACGACGATATTGGGTTTCGAGACGTGCTAGTCTTGATTCGCTTGACGCTGCTG | 2.54

Single results of other studies
Molecule | target | assay | test system | conditions | how to read | measurement | value
PhoQ, residues 284 288 289 292 302 303 SLGVVW | PhoP, residues 12 14 15 18 19 IQSYL (Escherichia coli, UniProt P23836) | Sort-seq, item: YFP reporter | E. coli | PhoQ-PhoP variant library, with: 10 µM Mg2+ | reference: high Mg2+ state, higher = stronger signaling | fold induction | 17.4

Excerpt of the above (sample 2):
Sequence | fluorescence intensity
CTACTGCTAGCAATGAACGTGCTATCTTTTTATTTCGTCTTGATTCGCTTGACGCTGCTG | 696 a.u.
CTAGTACTTTTGAATCATCAGACAAGAACAATGTTCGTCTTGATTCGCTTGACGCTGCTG | 500 a.u.
